Assay results pooled from the literature.
Parts stem from different laboratories: compare values within a part only. Substitutions count along the parent as printed.
Sequence of UniProt P61075 (whole entry, looked up): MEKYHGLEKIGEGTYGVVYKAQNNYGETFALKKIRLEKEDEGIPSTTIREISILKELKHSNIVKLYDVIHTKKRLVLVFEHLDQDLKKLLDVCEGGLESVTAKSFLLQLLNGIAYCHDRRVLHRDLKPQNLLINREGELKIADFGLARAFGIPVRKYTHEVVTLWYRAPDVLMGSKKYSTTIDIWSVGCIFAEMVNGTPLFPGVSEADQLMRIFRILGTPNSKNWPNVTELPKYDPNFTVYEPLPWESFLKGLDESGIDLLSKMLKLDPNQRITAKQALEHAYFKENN

Set 1
Cell line: L929
Read-out: necroptosis protection
Method: CCK-8
Tested at: 0.625 µM
With: TNF-α plus zVAD
SMILES | viability [%]
CC(C)S(=O)(=O)c1ccc2nccc(Nc3ccc4sc(C5CCCC5)nc4c3)c2c1 | 39.5
CC(C)S(=O)(=O)c1ccc2nccc(Nc3ccc4scnc4c3)c2c1 | 22.7
CC[C@H](C)c1nc2cc(Nc3ccnc4ccc(S(=O)(=O)C(C)C)cc34)ccc2s1 | 33.5

Set 2
Target: CCND1, cyclin fold, Cln2 fusion (human)
Method: yeast growth competition, sequencing
Sample: yeast
Notes: strong parent motif
Reference: not given
Reading: higher = stronger binding
Starting sequence: viral docking peptide; YKVKRRLVFGADD
Variant | normalised enrichment score
YKVKRRHVFGADD [L7H] | -0.545
YKVKRRLVFGQDD [A11Q] | 1.89
YLVKRRLVFGADD [K2L] | 1.27
YKVKRRLVFHADD [G10H] | 1.26
YKVKRRLYFGADD [V8Y] | 1.91
YKVKRRLVFGVDD [A11V] | 2.04
YKLKRRLVFGADD [V3L] | 0.455
YKVKRDLVFGADD [R6D] | 0.0878

Set 3
Target: Leukocyte tyrosine kinase receptor (LTK, Homo sapiens, UniProt P29376)
Sequence of UniProt P29376 (whole entry, looked up): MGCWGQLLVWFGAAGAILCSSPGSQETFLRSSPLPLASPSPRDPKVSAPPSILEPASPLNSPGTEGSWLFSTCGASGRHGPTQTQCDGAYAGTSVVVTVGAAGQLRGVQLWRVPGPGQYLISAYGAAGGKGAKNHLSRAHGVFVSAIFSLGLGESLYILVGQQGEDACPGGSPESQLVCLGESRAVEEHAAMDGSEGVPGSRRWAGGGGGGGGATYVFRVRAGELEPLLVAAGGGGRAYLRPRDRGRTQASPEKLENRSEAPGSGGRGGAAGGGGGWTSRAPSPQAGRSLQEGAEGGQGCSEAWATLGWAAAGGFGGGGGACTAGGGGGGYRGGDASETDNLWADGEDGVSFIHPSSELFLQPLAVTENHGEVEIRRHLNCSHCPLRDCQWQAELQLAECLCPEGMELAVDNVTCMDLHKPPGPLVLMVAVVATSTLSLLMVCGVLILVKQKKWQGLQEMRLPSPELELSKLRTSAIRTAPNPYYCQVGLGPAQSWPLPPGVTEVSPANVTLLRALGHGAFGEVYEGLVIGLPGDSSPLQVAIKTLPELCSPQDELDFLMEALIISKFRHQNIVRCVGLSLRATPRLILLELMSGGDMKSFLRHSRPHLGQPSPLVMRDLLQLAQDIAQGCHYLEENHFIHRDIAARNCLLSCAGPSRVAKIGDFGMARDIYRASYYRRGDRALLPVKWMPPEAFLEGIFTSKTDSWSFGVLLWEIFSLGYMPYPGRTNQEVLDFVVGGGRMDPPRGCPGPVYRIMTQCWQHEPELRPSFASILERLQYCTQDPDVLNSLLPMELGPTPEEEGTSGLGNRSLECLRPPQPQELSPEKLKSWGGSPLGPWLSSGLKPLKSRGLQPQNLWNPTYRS
Read-out: enzyme activity
Mode: inhibitor
Method: radiometric
Tested at: 0.5 µM
SMILES | remaining activity [%]
CC(=O)O/N=C1/C(c2c(O)[nH]c3cc(Br)ccc23)=Nc2ccccc21 | 83.3
CCN1/C(=C/C(C)=O)Sc2ccc(OC)cc21 | 87.1
CCC(=O)Nc1ccc2ncnc(Nc3cccc(Br)c3)c2c1 | 81
O=C(Nc1ccc(Cl)cc1)c1ccccc1NCc1ccncc1 | 104
CC(C)c1nn(-c2c(Cl)cccc2Cl)c2nc(Cc3ccc(OCCO)cc3)[nH]c(=O)c12 | 87.4
COc1ccc(Cl)cc1NC(=O)Nc1cc(C)nc2ccccc12 | 87.3
C[S+]([O-])c1ccc(-c2nc(-c3ccncc3)c(-c3ccc(F)cc3)[nH]2)cc1 (centres unmarked) | 101
COc1cc2ncnc(Nc3ccc(OCc4ccccc4)cc3)c2cc1OC | 98.6

Further values, each from its own experiment
SMILES | target | test | conditions | quantity | result
CCCOc1ccc([C@@H]2[C@@H](C(=O)O)[C@H](c3ccc4c(c3)OCO4)CN2CC(=O)Nc2c(CC)cccc2CC)cc1 | Cyclin-dependent kinase 2 homolog (CRK2, Plasmodium falciparum, UniProt P61075) | cell-free assay, competition with immobilised ligand | 1 µM | remaining binding | 97%

Repeated from above (set 2):
Variant | normalised enrichment score
YKVKRRLVFGVDD [A11V] | 2.04
YKLKRRLVFGADD [V3L] | 0.455
